Assay results from different studies.
Each line is one published result; not all experiments were run side by side. Several values in a cell are separate wells, animals, samples, runs or records.
Target: Casein kinase I isoform gamma-1 (CSNK1G1, Homo sapiens, UniProt Q9HCP0)

Cc1cccc(O[C@H]2CCC[C@@H](C(C)CNCc3ccncc3)C2)c1 (relative stereo) — inhibition (kinase activity, kinome panel screening; 10 µM): -8%
CN1CC[C@@H](COc2cnc(C#N)cc2-c2ccn3nc(NC(=O)C4CC4)cc3c2)C1 — inhibition (enzyme activity, inhibitor; 1 µM): -6%
COCC12C(=O)NC3C4(C(OC)CC1O)C1CC5(O)C(OC)C(O)C(OC(C)=O)(C1C5OC(=O)c1ccccc1)C3(O)C(OC)C24 (stereo not shown) — remaining activity (kinase activity, inhibitor, ProQinase kinase profiling; 25 µM; relative to: control): 93% and 106%
C=CC(=O)N1CCCC(n2c(=O)c3ncccc3n(Cc3ccc(Oc4ccccc4)cc3)c2=O)C1 (stereo not shown) — remaining binding (cell-free assay, competition with immobilised ligand; 1 µM): 100%
Cc1ccc(-c2c(/C=C(\C#N)C(=O)NC(C)C)n(CCCO)c3ncnc(N)c23)cc1 — remaining binding (cell-free assay, competition with immobilised ligand; 1 µM): 100%
NC(=O)C[C@H]1CCc2sc3ncnc(O[C@H]4CC[C@H](N5CCOCC5)CC4)c3c21 — inhibition (enzyme activity, inhibitor; 10 µM): 5%
COc1c(Cl)cccc1Nc1c(-c2ccncc2C#C[C@@]2(C)CCCN2C(=O)/C=C/CN(C)C)[nH]c2c1C(=O)NCC2 — remaining binding (cell-free assay, competition with immobilised ligand; 3 µM): 76%
C=CC(=O)Nc1cccc(-c2cnc3[nH]cc(C(=O)NC(C)(C)C)c3n2)c1 — inhibition (enzyme activity, inhibitor; 0.1 µM): 7%
CN1CCN(Cc2ccc(-c3ccc(CO[C@H]4CCC[C@@H]4NC(=O)c4cc(-c5cnn(C)c5)cnc4N)cc3)cc2)CC1 — inhibition (enzyme activity, inhibitor; 0.1 µM): 11%
Nc1ncc2c(n1)-c1c([nH]c3ccc(C4=CCOCC4)cc13)CCC2 — remaining binding (binding, competition with immobilised ligand; 1 µM): 100%
CNC(=O)C1CCN(c2cc(C)c(F)cc2NC(=O)c2ccc(-c3cc(O)ccc3C)c(C)c2)CC1 — remaining binding (binding, competition with immobilised ligand; 1 µM): 76%
CCN1CCN(Cc2ccc(C(=O)Nc3ccc(C)c(NCc4cnc5[nH]ccc5c4OC)c3)cc2C(F)(F)F)CC1 — remaining binding (binding, competition with immobilised ligand; 1 µM): 89%
Cc1nc2c(F)cc(-c3nc(Nc4ccc(CNC(=O)CCCCCCC(=O)NO)cc4)ncc3F)cc2n1C(C)C — inhibition (enzyme activity, inhibitor; 1 µM): 27%
COc1cc(Nc2nc(C)cc(-c3cnn4nc(OC)ccc34)n2)cc(C(F)(F)F)c1 — remaining activity (inhibitor; 1 µM; relative to: control): 100%
Cc1cnc2nc1Nc1cccc(c1)COC/C=C/COCc1cc(ccc1OCCN1CCOCC1)N2 — percent of control (concentration not given): 86%
O=C=[N][Ru-4]123([n]4c5ccc(O)cc5c5c6c(c7cc(F)c[n+]1c7c54)C(=O)NC6=O)[S+]1CC[S+]2CC[S+]3CC1 (stereo not shown) — remaining activity (enzyme activity; 100 nM, human enzyme, with: 10 µM ATP; relative to: untreated): 66%

Excerpt of the above:
Cc1ccc(-c2c(/C=C(\C#N)C(=O)NC(C)C)n(CCCO)c3ncnc(N)c23)cc1 — remaining binding (cell-free assay, competition with immobilised ligand; 1 µM): 100%
